# Experimental data gathered from unrelated publications.
# Every numbered part comes from another study and shows a few of its results, in no order.

# Series 1
# Target: Histone acetyltransferase KAT6A, winged helix 1, GST fusion (KAT6A, Homo sapiens, UniProt Q92794, residues 1-85)
# Technique: protein binding microarray
# Form: double-stranded DNA, one strand shown
# Matrix: in vitro
# Concentration: not given
# Setting: 8-mer, flanks averaged, mean of 2 arrays, mostly near background
# Relative to: not given
# Direction: higher = stronger binding
# Target sequence (chain): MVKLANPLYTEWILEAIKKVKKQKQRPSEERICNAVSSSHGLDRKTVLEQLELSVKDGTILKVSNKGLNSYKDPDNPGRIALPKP
Sequence,E-score
ACGTTAGT,-0.0211
CCCGCTAA,0.317
GGAATAGA,-0.0852

# Series 2
# Target: Sal-like protein 4, full length isoform A (SALL4, Homo sapiens, UniProt Q9UJQ4, residues 1-1053)
# Sequence of UniProt Q9UJQ4 (whole entry, looked up): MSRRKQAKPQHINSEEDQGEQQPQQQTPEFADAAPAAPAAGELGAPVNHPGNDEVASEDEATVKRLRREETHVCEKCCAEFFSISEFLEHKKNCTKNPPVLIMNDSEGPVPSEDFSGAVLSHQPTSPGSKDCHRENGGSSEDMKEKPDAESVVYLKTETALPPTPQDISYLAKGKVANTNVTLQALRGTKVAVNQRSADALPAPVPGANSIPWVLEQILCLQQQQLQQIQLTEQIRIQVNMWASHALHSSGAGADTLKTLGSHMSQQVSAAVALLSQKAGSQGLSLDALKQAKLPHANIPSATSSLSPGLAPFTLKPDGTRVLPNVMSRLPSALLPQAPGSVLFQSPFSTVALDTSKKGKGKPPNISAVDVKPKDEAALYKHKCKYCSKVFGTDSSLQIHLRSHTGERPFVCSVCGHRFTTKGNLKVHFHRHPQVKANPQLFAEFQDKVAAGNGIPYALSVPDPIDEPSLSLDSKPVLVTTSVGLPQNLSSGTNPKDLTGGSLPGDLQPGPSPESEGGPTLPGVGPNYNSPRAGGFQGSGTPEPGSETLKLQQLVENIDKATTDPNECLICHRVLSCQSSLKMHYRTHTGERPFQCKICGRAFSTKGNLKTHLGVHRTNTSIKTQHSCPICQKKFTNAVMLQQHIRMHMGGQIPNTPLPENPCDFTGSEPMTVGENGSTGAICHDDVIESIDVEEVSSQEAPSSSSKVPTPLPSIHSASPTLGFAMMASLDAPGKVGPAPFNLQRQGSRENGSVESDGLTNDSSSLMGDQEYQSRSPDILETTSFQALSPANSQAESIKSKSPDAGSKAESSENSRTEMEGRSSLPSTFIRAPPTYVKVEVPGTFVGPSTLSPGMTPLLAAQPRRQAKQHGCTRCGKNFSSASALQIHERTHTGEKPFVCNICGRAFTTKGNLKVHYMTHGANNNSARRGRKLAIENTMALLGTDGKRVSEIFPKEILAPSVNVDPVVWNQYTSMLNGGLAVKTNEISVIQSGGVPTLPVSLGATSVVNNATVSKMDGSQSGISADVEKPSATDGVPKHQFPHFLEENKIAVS
# Technique: universal PBM
# Form: double-stranded DNA, one strand shown
# Matrix: in vitro
# Concentration: 600 nM
# Setting: 8-mer, flanks averaged, mean of replicates
# Direction: higher = stronger binding
Sequence,E-score
CGGTGTCA,-0.195
GCGACAGC,-0.18
GTGATCCA,-0.0907

# Mixed results
Substance,target,assay,test system,setting,scale,endpoint,value
"PhoQ, residues 284 288 289 292 302 303 SNGLAW","PhoP, residues 12 14 15 18 19 QYFSL (Escherichia coli, UniProt P23836)","Sort-seq, item: YFP reporter",E. coli,"PhoQ-PhoP variant library, added: 10 µM Mg2+","relative to: high Mg2+ state, higher = stronger signaling",fold induction,11.4
GGTTGGTGTGGTTGG (2'F-ANA at 1 2 3 4 9 10 11 12 13 15),"Prothrombin, mature alpha-thrombin (F2, Homo sapiens, UniProt P00734)","aptamer microarray, sandwich","DNA with 2'F-ANA, in vitro","200 nM, whole 15-mer aptamer, many near background, added: Cy3 exosite-II aptamer, 400 nM",higher = stronger binding,mean fluorescence intensity,623 a.u.
